{"data": "Measured values gathered from unrelated publications", "note": "Parts stem from different laboratories: compare values within a part only. Positions count from the first letter of the parent shown."}
{"data": "Series 1", "target": "CCNA1, cyclin fold, Cln2 fusion (human)", "method": "yeast growth competition, sequencing", "sample": "yeast", "setting": "weak parent motif", "reference": "not given", "direction": "higher = stronger binding", "starting sequence": "SCAPER docking peptide (human); SNARRSLNFGGST"}
{"Change": "SNARYSLNFGGST [R5Y]", "normalised enrichment score": 0.265}
{"Change": "SNARRSLNDGGST [F9D]", "normalised enrichment score": 0.35}
{"Change": "SEARRSLNFGGST [N2E]", "normalised enrichment score": 0.761}
{"Change": "SNARRSLNFGGSI [T13I]", "normalised enrichment score": 0.594}
{"Change": "SNIRRSLNFGGST [A3I]", "normalised enrichment score": 0.615}
{"Change": "SNARRSLNFGWST [G11W]", "normalised enrichment score": 0.527}
{"Change": "SNARRSLNFAGST [G10A]", "normalised enrichment score": 0.501}
{"Change": "SNRRRSLNFGGST [A3R]", "normalised enrichment score": 0.107}
{"Change": "SNARSSLNFGGST [R5S]", "normalised enrichment score": 0.399}
{"Change": "SNARRSLNFGGCT [S12C]", "normalised enrichment score": 0.526}
{"Change": "SNARRSLNFGGSE [T13E]", "normalised enrichment score": 0.703}
{"Change": "SNARASANFGGST [R5A L7A]", "normalised enrichment score": 0.0523}
{"Change": "SSARRSLNFGGST [N2S]", "normalised enrichment score": 0.621}
{"data": "Series 2", "target": "RING finger protein unkempt homolog, zinc fingers 1-6, GST-SBP tag (UNK, Homo sapiens, UniProt Q9C0B0, residues 30-357)", "method": "RNA Bind-n-Seq", "molecule type": "RNA", "sample": "in vitro", "concentration": "not given", "setting": "RNA with constant flanks, human and mouse sites, ends assumed", "reference": "input RNA pool", "direction": "higher = stronger binding", "Target sequence (chain)": "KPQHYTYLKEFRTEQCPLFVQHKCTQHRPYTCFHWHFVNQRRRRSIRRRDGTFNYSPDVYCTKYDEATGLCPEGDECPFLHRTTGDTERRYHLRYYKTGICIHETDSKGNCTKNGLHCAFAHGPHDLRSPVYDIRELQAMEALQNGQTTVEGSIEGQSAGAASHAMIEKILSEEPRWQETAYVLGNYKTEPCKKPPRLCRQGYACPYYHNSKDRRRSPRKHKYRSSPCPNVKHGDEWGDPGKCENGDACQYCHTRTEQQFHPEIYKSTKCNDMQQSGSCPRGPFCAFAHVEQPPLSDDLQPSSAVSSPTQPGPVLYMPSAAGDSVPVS"}
{"Oligonucleotide": "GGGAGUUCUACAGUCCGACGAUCCCCCCAGACACUGCUGCCAGGCUGGGCUGGUCCCAGCCCUUAGGUAACCUCCAAGCUCCCUUAGGCUAUGAUAAGUUUAGCUAUUCUUGGCGGAGCAAGAAAGGCACCAAGUUCCACCAGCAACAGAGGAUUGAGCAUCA", "bound/input enrichment": "0.396 ratio"}
{"Oligonucleotide": "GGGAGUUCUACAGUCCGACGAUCCCCCCUCCAGCAUUGCCACCUCUCCUACAAGCACGCAGGCACAUAAACGUAGGCUUUUGAUGCUCCUCUGCCUGUUGACCCCGCUAUUUUCAUGUUUCCAACAGGUUUUUCUUCCCCCAACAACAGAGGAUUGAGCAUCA", "bound/input enrichment": "2.34 ratio"}
{"Oligonucleotide": "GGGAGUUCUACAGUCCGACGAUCAACAGGCACCCCCAGCUCACAUCACCAGCUCAUCCUUUGGUAGCCAUAGCAGCCCCAACUUUAGCCCCCACUCAUCCCUCCGGGGGCUUGCCUUUCCUUGACAGUUUGGGGGUCUGCCUGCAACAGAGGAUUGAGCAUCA", "bound/input enrichment": "0.177 ratio"}
{"Oligonucleotide": "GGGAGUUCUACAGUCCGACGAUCUCUGCUACACGGGAGCCACCAUACAGAGUACCUAGGGAUGAUUGGGAAGAAAAAAGGCACUUUAGAAGAGAUAGUUUUGAUGAUCGUGGUCCUAGUCUCAACCCAGUGCUUGAUUAUGACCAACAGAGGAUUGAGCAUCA", "bound/input enrichment": "1.61 ratio"}
{"Oligonucleotide": "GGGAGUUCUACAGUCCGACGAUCAUGCCUUUUAAGUAUGGUGUUUGACAUUAACUUGUGAAAAGUCUGUGAUGUUUGUAUAUAUAUAGCAUUUGAAGAUAAACUUUUGUGUUAAAAUCUUUUUAUAACUCCAACUUUUGUAGGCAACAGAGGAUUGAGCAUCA", "bound/input enrichment": "0.297 ratio"}
{"Oligonucleotide": "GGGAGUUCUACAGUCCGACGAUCCGUCCCGUCCGCGUGGUGUGAAGCGGCGCUGGAGGCUUAGUCGUAUAGUCUUCCGUCACUUAGCUGACCAUGGGCAACUUUCUGGGAUCCAGCGAGCGACAUGGUAAAUGAGCUCCAGAACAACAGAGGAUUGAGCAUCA", "bound/input enrichment": "0.138 ratio"}
{"Oligonucleotide": "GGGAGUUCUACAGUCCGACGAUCCAGGCUGCCAACUCUCCACCUAACCUUGGAGCAAAAAUUCCUCAAGGAUGUCAUAAACAAAGUUUACCAGAGGAAAUUUCUUCCUGUCUAAAUACAAAGUCUGAAGCUCUGAGAACAAAACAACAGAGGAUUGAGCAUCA", "bound/input enrichment": "0.122 ratio"}
{"Oligonucleotide": "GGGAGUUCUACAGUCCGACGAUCGACUCAUGUGUCUUACGUGGAGUUAUGAUUAACAAGGAUGUGACCCAUCCAAGGAUGCGCCGCUAUAUUAAGAAUCCUCGAAUUGUGCUAUUGGAUUCUUCUUUGGAGUACAAGAAAGGACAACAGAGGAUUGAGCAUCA", "bound/input enrichment": "0.0702 ratio"}
{"Oligonucleotide": "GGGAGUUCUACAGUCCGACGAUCAAAAACCUGGAGAAAAUUAGCAGACAGUCUAGUGUGCUCAUGGAUAACAUGAAACACCUAUUAGAGCUAAAUAAAUUAAUAAUGAAAUCACAGCAGGAAUCUUGGGAUUUAGAGGAAAAACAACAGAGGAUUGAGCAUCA", "bound/input enrichment": "8.52 ratio"}
{"Oligonucleotide": "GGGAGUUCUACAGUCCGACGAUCCCUCGACAAGGUCUUCCACUUGCCCACCACCACUUUCAUCGGGGGACAGGAAUCAGCACUUCCUCUGCGGGAGAUCAUCCGUCGGCUGGAGAUGGCCUACUGCCAGCAUAUUGGGGUGGACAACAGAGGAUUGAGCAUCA", "bound/input enrichment": "0.171 ratio"}
{"data": "Series 3", "target": "ABI1, truncated, D143A, DHFR fusion (Arabidopsis thaliana)", "method": "DHFR PCA, deep sequencing", "sample": "yeast", "setting": "methotrexate growth selection, single substitutions", "with": "(+)-ABA 710 µM", "reference": "wild-type fitted maximum", "direction": "higher = stronger binding", "starting sequence": "PYL1, truncated, DHFR fusion (Arabidopsis thaliana); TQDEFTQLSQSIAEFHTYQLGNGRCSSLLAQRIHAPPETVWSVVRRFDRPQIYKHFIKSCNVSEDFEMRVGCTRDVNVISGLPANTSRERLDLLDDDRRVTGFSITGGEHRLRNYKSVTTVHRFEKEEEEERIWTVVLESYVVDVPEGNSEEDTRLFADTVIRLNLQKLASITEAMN; partner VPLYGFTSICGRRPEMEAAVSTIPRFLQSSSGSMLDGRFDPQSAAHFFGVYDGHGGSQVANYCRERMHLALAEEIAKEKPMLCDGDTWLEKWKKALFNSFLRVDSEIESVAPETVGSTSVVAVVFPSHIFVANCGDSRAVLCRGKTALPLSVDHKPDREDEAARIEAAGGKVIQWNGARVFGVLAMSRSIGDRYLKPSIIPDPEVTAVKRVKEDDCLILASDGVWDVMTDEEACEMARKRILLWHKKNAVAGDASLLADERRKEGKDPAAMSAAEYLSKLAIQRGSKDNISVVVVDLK"}
{"Change": "R123Q", "relative binding score [%]": 111}
{"Change": "I33M", "relative binding score [%]": 96.6}
{"Change": "A175H", "relative binding score [%]": 97.7}
{"Change": "T17V", "relative binding score [%]": 93.2}
{"Change": "G23L", "relative binding score [%]": 91}
{"Change": "C60S", "relative binding score [%]": 88.1}
{"Change": "C72P", "relative binding score [%]": 54.8}
{"Change": "F157T", "relative binding score [%]": 27.6}
{"Change": "R99T", "relative binding score [%]": 92.2}
{"Change": "G81W", "relative binding score [%]": -3.74}
{"Change": "V142R", "relative binding score [%]": 94.6}
{"Change": "E125V", "relative binding score [%]": 113}
{"Change": "G71V", "relative binding score [%]": 2.09}
{"data": "Mixed results"}
{"Substance": "PhoQ, residues 284 288 289 292 302 303 SLANIV", "target": "PhoP, residues 12 14 15 18 19 NQGLL (Escherichia coli, UniProt P23836)", "test": "Sort-seq, refers to: YFP reporter", "test system": "E. coli", "setting": "PhoQ-PhoP variant library, with: 10 µM Mg2+", "how to read": "reference: high Mg2+ state, higher = stronger signaling", "quantity": "fold induction", "result": 2.32}
{"note": "For quick reference, copied from above (series 2):"}
{"Oligonucleotide": "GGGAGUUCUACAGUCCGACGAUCCCCCCAGACACUGCUGCCAGGCUGGGCUGGUCCCAGCCCUUAGGUAACCUCCAAGCUCCCUUAGGCUAUGAUAAGUUUAGCUAUUCUUGGCGGAGCAAGAAAGGCACCAAGUUCCACCAGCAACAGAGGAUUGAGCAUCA", "bound/input enrichment": "0.396 ratio"}
{"Oligonucleotide": "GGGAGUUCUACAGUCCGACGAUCCCCCCUCCAGCAUUGCCACCUCUCCUACAAGCACGCAGGCACAUAAACGUAGGCUUUUGAUGCUCCUCUGCCUGUUGACCCCGCUAUUUUCAUGUUUCCAACAGGUUUUUCUUCCCCCAACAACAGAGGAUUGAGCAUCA", "bound/input enrichment": "2.34 ratio"}
{"Oligonucleotide": "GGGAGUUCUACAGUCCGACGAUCAACAGGCACCCCCAGCUCACAUCACCAGCUCAUCCUUUGGUAGCCAUAGCAGCCCCAACUUUAGCCCCCACUCAUCCCUCCGGGGGCUUGCCUUUCCUUGACAGUUUGGGGGUCUGCCUGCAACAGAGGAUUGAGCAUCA", "bound/input enrichment": "0.177 ratio"}
{"Oligonucleotide": "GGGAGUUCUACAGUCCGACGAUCUCUGCUACACGGGAGCCACCAUACAGAGUACCUAGGGAUGAUUGGGAAGAAAAAAGGCACUUUAGAAGAGAUAGUUUUGAUGAUCGUGGUCCUAGUCUCAACCCAGUGCUUGAUUAUGACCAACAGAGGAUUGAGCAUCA", "bound/input enrichment": "1.61 ratio"}
{"Oligonucleotide": "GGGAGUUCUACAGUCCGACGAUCAUGCCUUUUAAGUAUGGUGUUUGACAUUAACUUGUGAAAAGUCUGUGAUGUUUGUAUAUAUAUAGCAUUUGAAGAUAAACUUUUGUGUUAAAAUCUUUUUAUAACUCCAACUUUUGUAGGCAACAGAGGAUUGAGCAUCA", "bound/input enrichment": "0.297 ratio"}
